{"data": "Experimental data gathered from unrelated publications", "note": "Each line is one published result; not all experiments were run side by side. Several values in a cell are separate wells, animals, samples, runs or records. ± marks the error that the study gave."}
{"SMILES": "CC(C)C[C@H](NC(=O)[C@@H](CCCCNC(=O)[C@@H](Cc1ccccc1)NC(=O)CCCCCCCNC(=O)CN1CCN(CC(=O)O)CCN(CC(=O)O)CCN(CC(=O)O)CC1)NC(=O)[C@H](Cc1ccc(O)cc1)NC(=O)[C@H](CO)NC(=O)[C@H](Cc1c[nH]c2ccccc12)NC(=O)[C@H](Cc1c[nH]cn1)NC(=O)[C@@H]1CCC(=O)N1)C(=O)N[C@@H](CCCNC(=N)N)C(=O)N1CCC[C@H]1C(=O)NCC(N)=O [indium-111 labelled]", "test system": "male athymic nude mice, DU-145 prostate cancer xenograft, tumour", "setting": "intravenous, 0.037 MBq, 2 h", "scale": "baseline: tumour over blood", "quantity": "tumour-to-tissue ratio", "value": 3.53}
{"SMILES": "COc1ccnc(C(=O)N[C@H]2COC(=O)[C@H](Cc3ccccc3)[C@@H](OC(=O)C(C)C)[C@H](C)OC2=O)c1O", "assay": "aerobic dark soil incubation", "test system": "clay soil", "setting": "20 °C, modelling endpoint", "quantity": "DT50", "value": "227 days"}
{"SMILES": "CC(=O)N([O-])CCCCCNC(=O)CCC(=O)N([O-])CCCCCNC(=O)CCC(=O)N([O-])CCCCCN.[89Zr+4]", "test system": "mouse, spleen", "setting": "4 h", "quantity": "tracer uptake", "value": "0.24 %ID/g"}
{"SMILES": "C=CC(=O)Nc1cc(Nc2nccc(-c3cn(C4CC4)c4ccccc34)n2)c(OC)cc1N(C)CCNC", "assay": "freeze-thaw stability", "test system": "rat plasma", "setting": "40 ng/mL, three freeze-thaw cycles", "scale": "baseline: nominal concentration", "quantity": "relative error", "value": "10.7%"}
{"SMILES": "COc1cccc(OC)c1-c1cc(C(=O)NC2(C(=O)O)C3CC4CC(C3)CC2C4)nn1-c1ccc(C(=O)N(C)CCCN(C)C(=O)[C@H](CCCCNC(=O)[C@H](CC(C)C)NC(=O)C2OC2C(=O)O)NC(=O)CN2CCN(CC(=O)[O-])CCN(CC(=O)[O-])CCN(CC(=O)[O-])CC2)cc1C(C)C.[177Lu+3] (mixture of isomers)", "test system": "mouse, HT-29 xenograft", "setting": "72 h post injection, biodistribution", "scale": "baseline: tumour over heart uptake", "quantity": "tumour-to-heart ratio", "value": 31.8}
{"SMILES": "CC(C)(O)c1ncc([S@](N)(=O)=NC(=O)Nc2c3c(cc4c2CCC4)CCC3)s1", "assay": "item: investigations", "test system": "healthy human", "setting": "oral, 100 mg, CS formulation, fasted", "quantity": "subjects with TEAEs", "value": "20%"}
{"SMILES": "O=C(Nc1cnccc1-c1ccc([18F])cc1)c1ccnc(NC(=O)C2CC2)c1", "test system": "mice, transgenic, GSK-3β, early-stage, heart", "setting": "intravenous, dose not given, 120 min", "quantity": "SUV", "value": 0.2}
{"SMILES": "CN1CCC[C@]1(C)/C=C/S(=O)(=O)NC(=O)Nc1c2c(cc3c1CCC3)CCC2", "assay": "item: transaminases increased, probably related", "test system": "human", "setting": "oral, 100 mg twice daily, 14 days, multiple ascending dose", "quantity": "subjects with adverse event", "value": "16.7%"}
{"SMILES": "O=C(Nc1ccc(-c2nnc(-c3ccccn3)nn2)nc1)c1ccc(-c2cn(CCOCCOCCOCC[18F])nn2)cc1", "test system": "BALB/c nude mouse, LS174T xenograft", "setting": "intravenous, 1 h, together with: CC49-TCO 72 h before", "quantity": "tumour to muscle ratio", "value": 1.5}
{"SMILES": "CCCC[C@H](NC(=O)CNC(=O)CNC(=O)[C@H](CCCCNC(=O)[C@H](CC(N)=O)NC(=O)C(C)c1ccc(CC(C)C)cc1)NC(=O)CN1CCN(CC(=O)O)CCN(CC(=O)O)CCN(CC(=O)O)CC1)C(=O)N[C@H]1CC(=O)NCCCC[C@@H](C(N)=O)NC(=O)[C@H](Cc2c[nH]c3ccccc23)NC(=O)[C@H](CCCNC(=N)N)NC(=O)[C@@H](Cc2ccccc2)NC(=O)[C@H](Cc2c[nH]cn2)NC1=O (some centres unmarked) [lutetium-177 labelled]", "test system": "C57 mice, tumour", "setting": "2 h", "scale": "baseline: blood", "quantity": "tumour-to-tissue ratio", "value": 54.3}
{"SMILES": "C=CC(=O)Nc1cc(Nc2nccc(-c3cn(C)c4ccccc34)n2)c(OC)cc1N(C)CCNC", "assay": "storage stability", "test system": "human dried blood spots", "setting": "24 h, -80 °C, low QC level", "quantity": "recovery", "value": "103%"}
{"SMILES": "CC(C(=O)O)n1nc(Cn2cc3cc(OCC[18F])c(Cl)cc3n2)c2ccccc2c1=O (racemic)", "test system": "Sprague-Dawley rat male, fat", "setting": "5 min", "quantity": "tissue uptake", "value": "0.11 ± 0.07 %ID/g"}
{"SMILES": "CC(=O)N[C@H](CC(=O)O)C(=O)N[C@H](Cc1c[nH]c2ccccc12)C(=O)N[C@H](Cc1ccccc1)C(=O)N[C@H](CCCCN)C(=O)N[C@H](C)C(=O)N[C@H](Cc1ccccc1)C(=O)N[C@H](Cc1ccc(O)cc1)C(=O)N[C@H](CC(=O)O)C(=O)N[C@H](CCCCN)C(=O)N[C@@H](C(=O)N[C@H](C)C(=O)N[C@H](CCC(=O)O)C(=O)N[C@H](CCCCN)C(=O)N[C@H](Cc1ccccc1)C(=O)N[C@H](CCCCN)C(=O)N[C@H](CCC(=O)O)C(=O)N[C@H](C)C(=O)N[C@H](Cc1ccccc1)C(N)=O)C(C)C", "test system": "human, plasma", "setting": "oral, dose not given, 1 h post-dose, day 13", "quantity": "plasma concentration", "value": "90 ng/mL"}
{"SMILES": "C#CC(C)NC(=O)C(CC(C)(C)F)NC(c1ccc(-c2ccc(S(C)(=O)=O)cc2)cc1)C(F)(F)F (centres unmarked)", "test system": "PBS", "setting": "100 µM, 23 h, pH 7.45, 37 °C, together with: cysteine 10 mM", "quantity": "cysteine adduct formation", "value": "< 1%"}
{"SMILES": "COCC1CN(C2CCN(c3cc(OC)c(Nc4ncc(Br)c(Nc5ccc6c(c5P(C)(C)=O)OCCO6)n4)cc3C)CC2)C1", "test system": "EGFR-mutant NSCLC patients", "setting": "oral, 60 mg once daily", "quantity": "grade ≥3 treatment-related AEs", "value": "14.3%"}
{"SMILES": "Cc1cc(-c2ccc(C(=O)[C@@H]3CCCC[C@H]3C(=O)Nc3cnn4c3C(=O)NCC4)cc2)[nH]n1", "test system": "human, urine and faeces", "setting": "oral, 200 mg, mean of six subjects", "scale": "baseline: dose", "quantity": "recovery of radioactivity", "value": "85.2%"}
{"SMILES": "COc1ccc(Nc2nc(Nc3ccc(OCCOCCOCC[18F])cc3)ncc2Br)cc1", "test system": "ICR mice, S180 tumour", "setting": "intravenous, 370 kBq, 120 min", "scale": "baseline: tumour over bone", "quantity": "uptake ratio", "value": 1.11}
{"SMILES": "OC1(C(F)(F)F)CCN(c2nc(Nc3ccnc(C(F)(F)F)c3)nc(-c3cccc(C(F)(F)F)n3)n2)C1 (centres unmarked)", "test system": "monkey, plasma", "setting": "oral, 1 mg/kg", "quantity": "Tmax", "value": "5.33 ± 1.03 h"}
{"SMILES": "CC[C@H](C)[C@@H]1NC(=O)[C@H](Cc2ccc(O)cc2)NC(=O)CCCSC[C@@H](C(=O)N(CC(=O)N[C@@H](CC(C)C)C(=O)NCC(N)=O)Cc2ccc(F)cc2)NC(=O)[C@H](CC(N)=O)NC(=O)[C@H](CCC(N)=O)NC1=O", "test system": "healthy human, plasma", "setting": "intranasal, 50 µg every 3 h, after first dose", "quantity": "Cmax", "value": "0.034 ng/mL"}
{"SMILES": "Cc1nn(-c2nc3c(F)cc(F)cc3s2)c(O)c1C(c1ccc(C(F)(F)F)cc1)c1c(C)nn(-c2nc3c(F)cc(F)cc3s2)c1O", "test system": "ICR mouse, plasma", "setting": "oral, 50 mg/kg", "quantity": "MRT(0-inf) observed", "value": "4.2 h and 8 h and 4.11 h"}
{"SMILES": "CCCCCCCOc1ccc(CC[C@](N)(CO)COP(=O)(O)O)cc1C(F)(F)F", "test system": "healthy human males, plasma", "setting": "oral, 0.25 mg, day 21", "quantity": "half-life", "value": "16.8 days"}
{"SMILES": "C=Cc1c(C)c2cc3nc(c(CC(=O)OCCOCCOCCOC)c4[nH]c(cc5nc(cc1[nH]2)C(C)=C5CC)c(C)c4C(=O)O)[C@@H](CCC(=O)OCCOCCOCCOC)[C@@H]3C", "assay": "LC-MS", "test system": "methanol-water 9:1", "setting": "4 h, pH 8.0", "quantity": "compound loss", "value": "29%"}
{"SMILES": "O=C([O-])CN1CCN(CC(=O)[O-])CCN(C(CO)C(O)CO)CCN(CC(=O)[O-])CC1.[Dy+3] (centres unmarked)", "assay": "ICP-MS", "test system": "cynomolgus monkey", "setting": "58 days", "scale": "baseline: dose", "quantity": "cumulative urinary excretion", "value": "98.9%"}
{"SMILES": "CC(C)OCCOCc1ccc(OCC(O)CN(N=O)C(C)C)cc1 (centres unmarked)", "assay": "duplex sequencing, item: mutation frequency", "test system": "NMRI mouse, bone marrow", "setting": "oral, 284.5 mg/kg/day, 4 weeks", "scale": "baseline: vehicle", "quantity": "fold change", "value": 1.96}
{"SMILES": "COc1ccc2c(c1)CCn1c[n+]3c(c1-2)-c1ccc(OC)cc1CC3", "test system": "female NSG mice, blood", "setting": "6 mg/kg, day 14, 5 days per week", "quantity": "Neutrophils", "value": "67.7 ± 25.4%"}
{"SMILES": "Cc1cc(C)n(CCN(CCN)CCCCCCNC(=O)[C@@H](N)Cc2c[nH]cn2)n1.[99Tc+].[C-]#[O+].[C-]#[O+].[C-]#[O+]", "test system": "BALB/c nude mice A549 xenograft", "setting": "intravenous, 24 h", "scale": "baseline: tumour over muscle", "quantity": "tumour-to-tissue ratio", "value": 10.9}
{"SMILES": "C=CC(=O)Nc1cc(Nc2nccc(-c3c[nH]c4ccccc34)n2)c(OC)cc1N(C)CCN(C)C", "assay": "storage stability", "test system": "human dried blood spot", "setting": "2 h, -80 °C, HQC level", "quantity": "recovery", "value": "107%"}
{"SMILES": "[123I]c1ccc2nc(-c3ccc(-n4ccnn4)nc3)cn2c1", "test system": "male Wistar rat, lung", "setting": "intravenous, 4 MBq, 3 h", "quantity": "tracer uptake", "value": "0.065 %ID/g"}
{"SMILES": "C=C(NC(=O)c1csc(-c2nc3c(cc2O)-c2nc(cs2)C(=O)NC(C(C)O)C(=O)NC(=C(C)OC)c2nc(cs2)C(=O)NC2c4nc(cs4)C(=O)NC(COC(=O)c4c5c6c(cccc6n4O)COC(=O)C(OC4CC(C)(O)C(N(C)C)C(C)O4)C2OC5)c2nc-3cs2)n1)C(N)=O (centres unmarked)", "test system": "cynomolgus monkey, both sexes, plasma", "setting": "intravenous infusion, 9 mg/kg single dose", "quantity": "clearance", "value": "211 mL/h/kg"}
{"SMILES": "CCCCN1C(=O)c2cccc3c(NCCCN4CCOCC4)ccc(c23)C1=O", "test system": "ethyl acetate", "quantity": "fluorescence quantum yield", "value": 0.34}
{"SMILES": "O=C(Nc1cnccc1-c1ccc([18F])nc1)c1ccnc(NC(=O)C2CC2)c1", "assay": "ex vivo gamma counting", "test system": "FVB/NJ mice, both sexes, cecum", "setting": "intravenous, 120 min, together with: tariquidar 15 mg/kg iv", "quantity": "mean SUV", "value": 1.7}
{"SMILES": "C[N+](C)(CCOCCOCCOCCNC(=S)Nc1ccc(C[C@H]2CN(CC(=O)[O-])CCN(CC(=O)[O-])CCN2CC(=O)[O-])cc1)C[c-]1cccc1.[64Cu+2].[Fe+2].c1cc[cH-]c1", "assay": "pretargeted biodistribution", "test system": "nude mouse, BxPC-3 xenograft tumour", "setting": "8 h post injection, 72 h lag time", "quantity": "tumour uptake", "value": "3.1 ± 0.6 %ID/g"}
{"SMILES": "CNCc1ccc(-c2cc(=O)c3ccc4[nH]c(C(F)(F)F)nc4c3o2)cc1", "test system": "ICR mice, plasma", "setting": "intravenous, 2 mg/kg", "quantity": "t1/2", "value": "50.4 min"}
{"SMILES": "CNc1nc(N)nc2c1ncn2C1OC(COP(=O)(O)NC(C)C(=O)O)C(O)C1(C)F (centres unmarked)", "test system": "healthy adult humans, plasma", "setting": "oral, 550 mg once daily, day 6, fasted, given alone", "quantity": "Cmax, geometric mean", "value": "593 ng/mL"}
{"SMILES": "O=C(NS(=O)(=O)c1cccs1)c1cc2ccccc2n1Cc1ccc(Br)c2ccccc12", "test system": "mouse, plasma", "setting": "oral, 2 mg/kg", "quantity": "MRT(0-inf)", "value": "1.17 h"}
{"SMILES": "COC1CN([C@H]2CC[C@H]([C@@]3(C)Oc4c(Cl)cc(C(=O)NCc5c(SC)cc(C)[nH]c5=O)c(C)c4O3)CC2)C1", "test system": "female CB17 SCID mice, HT-1376 xenograft, plasma", "setting": "75 mg/kg, day 1", "quantity": "AUC(0-t)", "value": "7220 ng·h/mL"}
{"SMILES": "O=C(c1ccccc1)N1C(c2ccc(OCC3CCN(CCCF)C3)cc2)c2ccc(O)cc2CC12CC2 (centres unmarked)", "test system": "C57BL/6J mouse, plasma", "setting": "oral, 25 mg/kg, group mean", "quantity": "MRT(0-inf)", "value": "3.88 h"}
{"SMILES": "Cc1nc(N)nc2c1C(=O)N[C@@H](c1ccc(F)cc1-c1cccc(O[11CH3])n1)C2", "assay": "ex vivo biodistribution", "test system": "mice, U87 subcutaneous xenograft, kidneys", "setting": "60 min post-injection, baseline, vehicle pre-treatment", "quantity": "SUV", "value": "1.6 ± 0.2"}
